Measurements from different studies.
Every numbered part comes from another study and shows a few of its results, in no order.
UniProt Q12866, sequence (whole entry, looked up): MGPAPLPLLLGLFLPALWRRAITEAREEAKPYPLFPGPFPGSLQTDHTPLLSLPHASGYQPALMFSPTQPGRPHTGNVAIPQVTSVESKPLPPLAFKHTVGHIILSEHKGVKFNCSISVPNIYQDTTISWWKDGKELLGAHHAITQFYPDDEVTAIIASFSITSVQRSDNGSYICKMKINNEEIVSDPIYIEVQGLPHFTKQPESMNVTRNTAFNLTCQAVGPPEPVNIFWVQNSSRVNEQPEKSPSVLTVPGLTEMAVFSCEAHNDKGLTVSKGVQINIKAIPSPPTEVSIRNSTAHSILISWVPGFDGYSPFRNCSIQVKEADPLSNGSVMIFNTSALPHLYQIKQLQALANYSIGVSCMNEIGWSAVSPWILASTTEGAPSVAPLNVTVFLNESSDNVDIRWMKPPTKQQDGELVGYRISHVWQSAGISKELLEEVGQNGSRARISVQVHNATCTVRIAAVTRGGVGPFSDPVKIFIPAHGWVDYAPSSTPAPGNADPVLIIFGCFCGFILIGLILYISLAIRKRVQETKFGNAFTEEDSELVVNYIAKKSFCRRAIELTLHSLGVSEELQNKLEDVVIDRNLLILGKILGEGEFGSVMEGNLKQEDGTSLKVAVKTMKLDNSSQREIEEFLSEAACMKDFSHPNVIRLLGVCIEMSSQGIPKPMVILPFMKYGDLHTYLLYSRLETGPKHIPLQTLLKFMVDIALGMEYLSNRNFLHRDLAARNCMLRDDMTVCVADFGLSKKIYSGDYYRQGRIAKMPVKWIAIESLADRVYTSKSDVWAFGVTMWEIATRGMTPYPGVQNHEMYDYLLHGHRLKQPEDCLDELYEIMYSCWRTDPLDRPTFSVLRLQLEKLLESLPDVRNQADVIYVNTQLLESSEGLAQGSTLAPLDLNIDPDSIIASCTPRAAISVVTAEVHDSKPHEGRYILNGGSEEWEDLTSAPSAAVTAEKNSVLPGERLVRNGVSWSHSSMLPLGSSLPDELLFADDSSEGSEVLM
UniProt P27361, sequence (whole entry, looked up): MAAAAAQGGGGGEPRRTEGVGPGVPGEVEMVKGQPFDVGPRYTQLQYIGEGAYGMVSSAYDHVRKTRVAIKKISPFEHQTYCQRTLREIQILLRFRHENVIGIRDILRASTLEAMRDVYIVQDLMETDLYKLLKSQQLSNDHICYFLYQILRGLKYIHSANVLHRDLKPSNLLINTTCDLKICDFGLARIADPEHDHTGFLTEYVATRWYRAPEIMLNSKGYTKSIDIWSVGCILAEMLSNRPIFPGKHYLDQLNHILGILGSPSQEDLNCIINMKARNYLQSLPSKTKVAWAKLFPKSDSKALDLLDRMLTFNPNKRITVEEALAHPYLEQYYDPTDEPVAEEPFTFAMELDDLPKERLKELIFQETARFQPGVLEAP
UniProt Q8NFJ6, sequence (whole entry, looked up): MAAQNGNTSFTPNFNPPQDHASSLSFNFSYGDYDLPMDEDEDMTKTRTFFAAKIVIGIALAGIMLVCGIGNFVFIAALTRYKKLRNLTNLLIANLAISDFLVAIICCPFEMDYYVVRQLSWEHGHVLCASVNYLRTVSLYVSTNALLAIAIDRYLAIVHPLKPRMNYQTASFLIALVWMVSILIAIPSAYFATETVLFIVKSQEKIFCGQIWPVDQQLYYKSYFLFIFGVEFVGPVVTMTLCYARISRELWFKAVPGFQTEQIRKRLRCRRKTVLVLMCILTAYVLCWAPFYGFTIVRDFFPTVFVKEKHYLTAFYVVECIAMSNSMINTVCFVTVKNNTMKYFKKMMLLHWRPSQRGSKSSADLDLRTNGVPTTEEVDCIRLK
UniProt Q14289, sequence (whole entry, looked up): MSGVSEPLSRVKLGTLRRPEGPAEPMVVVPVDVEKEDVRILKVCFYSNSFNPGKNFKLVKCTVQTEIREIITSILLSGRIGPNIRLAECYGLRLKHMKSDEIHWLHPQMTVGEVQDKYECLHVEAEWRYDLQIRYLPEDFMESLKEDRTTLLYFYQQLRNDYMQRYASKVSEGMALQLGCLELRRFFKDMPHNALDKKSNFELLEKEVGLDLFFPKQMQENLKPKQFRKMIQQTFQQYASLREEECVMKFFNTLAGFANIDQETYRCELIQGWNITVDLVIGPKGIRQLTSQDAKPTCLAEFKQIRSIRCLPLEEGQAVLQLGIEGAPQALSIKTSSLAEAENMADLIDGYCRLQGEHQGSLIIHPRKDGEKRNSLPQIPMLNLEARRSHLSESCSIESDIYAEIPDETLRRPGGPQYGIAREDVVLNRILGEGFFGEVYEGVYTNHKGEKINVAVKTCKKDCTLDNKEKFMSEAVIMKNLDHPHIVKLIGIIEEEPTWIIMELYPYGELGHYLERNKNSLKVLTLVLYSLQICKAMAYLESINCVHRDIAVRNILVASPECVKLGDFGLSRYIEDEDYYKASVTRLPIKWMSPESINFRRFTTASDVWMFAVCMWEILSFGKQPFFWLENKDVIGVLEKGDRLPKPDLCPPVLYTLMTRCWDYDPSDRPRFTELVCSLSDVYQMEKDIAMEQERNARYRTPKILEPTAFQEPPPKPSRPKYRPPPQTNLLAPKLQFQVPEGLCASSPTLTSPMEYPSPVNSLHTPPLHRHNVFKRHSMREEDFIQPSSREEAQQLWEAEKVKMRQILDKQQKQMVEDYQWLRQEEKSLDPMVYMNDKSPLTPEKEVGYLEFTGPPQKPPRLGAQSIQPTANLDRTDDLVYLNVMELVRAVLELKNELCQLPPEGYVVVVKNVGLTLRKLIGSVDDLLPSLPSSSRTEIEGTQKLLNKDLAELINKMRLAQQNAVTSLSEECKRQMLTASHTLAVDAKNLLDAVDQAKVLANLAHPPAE
UniProt Q96PY6, sequence (whole entry, looked up): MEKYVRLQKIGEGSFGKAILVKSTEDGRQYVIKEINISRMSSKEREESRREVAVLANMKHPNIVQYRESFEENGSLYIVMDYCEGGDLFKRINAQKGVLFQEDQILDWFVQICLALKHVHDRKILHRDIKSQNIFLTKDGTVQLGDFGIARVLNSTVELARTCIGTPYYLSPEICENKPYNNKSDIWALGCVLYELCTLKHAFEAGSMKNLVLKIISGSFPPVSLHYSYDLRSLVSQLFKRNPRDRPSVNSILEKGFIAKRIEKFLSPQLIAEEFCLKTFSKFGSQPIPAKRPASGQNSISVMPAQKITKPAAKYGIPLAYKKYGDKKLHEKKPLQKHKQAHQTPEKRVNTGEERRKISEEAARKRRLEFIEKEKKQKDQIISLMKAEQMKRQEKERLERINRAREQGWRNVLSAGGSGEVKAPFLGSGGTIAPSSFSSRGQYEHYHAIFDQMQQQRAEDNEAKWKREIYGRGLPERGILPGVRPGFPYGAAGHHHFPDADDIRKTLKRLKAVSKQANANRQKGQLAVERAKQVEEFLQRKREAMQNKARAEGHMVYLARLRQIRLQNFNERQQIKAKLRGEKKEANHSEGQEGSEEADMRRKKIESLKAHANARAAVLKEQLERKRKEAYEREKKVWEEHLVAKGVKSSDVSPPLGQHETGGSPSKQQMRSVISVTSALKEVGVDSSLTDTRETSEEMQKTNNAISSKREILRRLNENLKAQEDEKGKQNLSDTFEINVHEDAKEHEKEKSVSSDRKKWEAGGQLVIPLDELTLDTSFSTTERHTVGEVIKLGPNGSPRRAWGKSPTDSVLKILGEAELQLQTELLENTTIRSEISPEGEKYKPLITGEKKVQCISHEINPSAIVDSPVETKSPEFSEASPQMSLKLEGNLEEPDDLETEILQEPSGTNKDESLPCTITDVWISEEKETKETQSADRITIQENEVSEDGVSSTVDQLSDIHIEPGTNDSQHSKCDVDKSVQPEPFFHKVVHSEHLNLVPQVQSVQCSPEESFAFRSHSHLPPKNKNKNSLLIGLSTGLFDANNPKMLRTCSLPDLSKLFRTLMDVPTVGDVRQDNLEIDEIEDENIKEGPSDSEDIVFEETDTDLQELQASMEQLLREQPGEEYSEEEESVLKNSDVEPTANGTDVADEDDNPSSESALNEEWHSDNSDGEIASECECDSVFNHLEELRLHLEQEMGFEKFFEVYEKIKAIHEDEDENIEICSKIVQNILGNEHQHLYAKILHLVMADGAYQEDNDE
UniProt Q6PHR2, sequence (whole entry, looked up): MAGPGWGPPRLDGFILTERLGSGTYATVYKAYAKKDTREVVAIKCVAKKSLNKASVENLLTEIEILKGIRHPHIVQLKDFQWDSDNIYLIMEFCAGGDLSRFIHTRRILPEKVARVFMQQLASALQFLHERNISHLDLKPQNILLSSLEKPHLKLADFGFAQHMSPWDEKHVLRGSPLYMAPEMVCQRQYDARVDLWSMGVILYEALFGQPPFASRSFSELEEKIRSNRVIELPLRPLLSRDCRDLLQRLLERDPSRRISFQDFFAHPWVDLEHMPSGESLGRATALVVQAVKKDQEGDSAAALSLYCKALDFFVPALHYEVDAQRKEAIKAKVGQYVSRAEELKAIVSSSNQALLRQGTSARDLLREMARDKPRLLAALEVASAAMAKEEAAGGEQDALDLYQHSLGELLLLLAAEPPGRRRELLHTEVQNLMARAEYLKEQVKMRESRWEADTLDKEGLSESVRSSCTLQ

Sample 1
Compound: N=C(N)NC(=O)c1cnn(-c2cccc3ncccc23)c1C1CC1
Read-out: β-arrestin recruitment
Action: agonist
Method: PRESTO-Tango
Tested at: 10 µM
Reference: untreated
It gave 1.31 for “fold over basal” (Endothelin-1 receptor (EDNRA, Homo sapiens, UniProt P25101)).
For fMet-Leu-Phe receptor (FPR1, Homo sapiens, UniProt P21462): “fold over basal” read 0.88 fold.
Vasoactive intestinal polypeptide receptor 2 (VIPR2, Homo sapiens, UniProt P41587) — “fold over basal”: 0.67 fold.
Prokineticin receptor 2 (PROKR2, Homo sapiens, UniProt Q8NFJ6) — “fold over basal”: 0.76.

Sample 2
Structure (SMILES): N#C/C(=C(/N)SC1C=CC=CC1)c1cccc(C(O)c2ccncc2)c1 (centres unmarked)
Read-out: enzyme activity
Action: inhibitor
Tested at: 0.5 µM
Reference: control
Serine/threonine-protein kinase ULK2 (ULK2, Homo sapiens, UniProt Q8IYT8) — remaining activity: 114%.
MAP kinase-activated protein kinase 2 (MAPKAPK2, Homo sapiens, UniProt P49137) — remaining activity: 101%.
It gave 127% for remaining activity (Serine/threonine-protein kinase ULK3 (ULK3, Homo sapiens, UniProt Q6PHR2)).
The remaining activity was 85% (Serine/threonine-protein kinase Nek1 (NEK1, Homo sapiens, UniProt Q96PY6)).
For Mitogen-activated protein kinase 3 (MAPK3, Homo sapiens, UniProt P27361): remaining activity read 107%.
For Macrophage-stimulating protein receptor (MST1R, Homo sapiens, UniProt Q04912): remaining activity read 102%.
Fibroblast growth factor receptor 1 (FGFR1, Homo sapiens, UniProt P11362) — remaining activity: 115%.
Tyrosine-protein kinase ABL2 (ABL2, Homo sapiens, UniProt P42684) — remaining activity: 105%.
It gave 96.3% for remaining activity (Fibroblast growth factor receptor 3 (FGFR3, Homo sapiens, UniProt P22607)).
For Glycogen synthase kinase-3 beta (GSK3B, Homo sapiens, UniProt P49841): remaining activity read 95.7%.
Mitogen-activated protein kinase kinase kinase 5 (MAP3K5, Homo sapiens, UniProt Q99683) — remaining activity: 108%.
For Serine/threonine-protein kinase TBK1 (TBK1, Homo sapiens, UniProt Q9UHD2): remaining activity read 108%.
For Casein kinase I isoform gamma-2 (CSNK1G2, Homo sapiens, UniProt P78368): remaining activity read 98.8%.
It gave 99.5% for remaining activity (Casein kinase I isoform gamma-3 (CSNK1G3, Homo sapiens, UniProt Q9Y6M4)).
For Serine/threonine-protein kinase Nek6 (NEK6, Homo sapiens, UniProt Q9HC98): remaining activity read 108%.
It gave 99.7% for remaining activity (Tyrosine-protein kinase Mer (MERTK, Homo sapiens, UniProt Q12866)).
Activin receptor type-1B (ACVR1B, Homo sapiens, UniProt P36896) — remaining activity: 104%.
For Angiopoietin-1 receptor (TEK, Homo sapiens, UniProt Q02763): remaining activity read 101%.
For Ribosomal protein S6 kinase alpha-2 (RPS6KA2, Homo sapiens, UniProt Q15349): remaining activity read 164%.
The remaining activity was 84.4% (Dual specificity mitogen-activated protein kinase kinase 2 (MAP2K2, Homo sapiens, UniProt P36507)).
The remaining activity was 70.9% (Wee1-like protein kinase (WEE1, Homo sapiens, UniProt P30291)).
It gave 108% for remaining activity (Rhodopsin kinase GRK7 (GRK7, Homo sapiens, UniProt Q8WTQ7)).
The remaining activity was 106% (Tyrosine-protein kinase FRK (FRK, Homo sapiens, UniProt P42685)).

Sample 3
Cell line: A-375
Tested at: 100 µM
Time: 18 h
For `C[C@]12C=CC(=O)C=C1CC[C@@H]1[C@@H]2[C@@H](O)C[C@@]2(C)[C@H]1CC[C@]2(O)C(=O)COP(=O)(O)O`, the viability was 99.6%.
For `C/C=C1\NC(=O)[C@H]2CSSCC/C=C/[C@H](CC(=O)N[C@H](C(C)C)C(=O)N2)OC(=O)[C@H](C(C)C)NC1=O`, the viability was 26.5%.
`O=C(Nc1cccc2c(=O)cc(-c3nnn[nH]3)oc12)c1ccc(OCCCCc2ccccc2)cc1` has a viability of 87.7%.
For `CC(=O)N1CCN(c2ccc(OC[C@@H]3CO[C@@](Cn4ccnc4)(c4ccc(Cl)cc4Cl)O3)cc2)CC1` (racemic), the viability was 7.58%.

Sample 4
Target: Calcium/calmodulin-dependent protein kinase type II subunit alpha (CAMK2A, Homo sapiens, UniProt Q9UQM7)
UniProt Q9UQM7, sequence (whole entry, looked up): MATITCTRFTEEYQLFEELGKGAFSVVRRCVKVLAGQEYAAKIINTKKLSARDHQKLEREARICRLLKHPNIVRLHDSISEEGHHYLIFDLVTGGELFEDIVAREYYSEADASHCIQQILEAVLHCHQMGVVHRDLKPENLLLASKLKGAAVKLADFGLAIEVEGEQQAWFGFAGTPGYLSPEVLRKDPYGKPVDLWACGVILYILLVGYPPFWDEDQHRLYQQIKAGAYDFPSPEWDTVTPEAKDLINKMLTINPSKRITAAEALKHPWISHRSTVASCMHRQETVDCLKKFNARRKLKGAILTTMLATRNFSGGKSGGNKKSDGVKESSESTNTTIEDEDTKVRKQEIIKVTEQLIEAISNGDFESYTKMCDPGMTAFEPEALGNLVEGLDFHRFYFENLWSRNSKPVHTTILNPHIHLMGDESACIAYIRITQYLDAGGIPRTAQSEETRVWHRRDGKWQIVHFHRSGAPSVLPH
Read-out: enzyme activity
Action: inhibitor
Tested at: 10 µM
`CC(C)=CCO` gave an inhibition of -38%.
For `C=C1C(=O)O[C@H]2C[C@@H](C)[C@@H]3C=CC(=O)[C@@]3(C)[C@@H](OC(C)=O)[C@H]12`, the inhibition was 13%.
With `Cc1c(O)c(C)c2c(c1O)C(=O)C[C@@H](c1ccc(O)cc1)O2` the inhibition was -37%.
The inhibition of `C[C@@H](O)[C@H]1C(=O)N2C(C(=O)O)=C(S[C@@H]3CN[C@H](C(=O)Nc4cccc(C(=O)O)c4)C3)[C@H](C)[C@H]12` is reported as -18%.
With `COC(=O)c1cc(O)c(O)c(OC)c1` the inhibition was 0%.

Sample 5
Compound: CC(C)S(=O)(=O)c1ccc2nccc(Nc3ccc4sc(C5CCCC5)nc4c3)c2c1.Cl
Read-out: kinase activity
Action: inhibitor
Tested at: 1 µM
For TGF-beta receptor type-1 (TGFBR1, Homo sapiens, UniProt P36897): remaining activity read 87%.
For Insulin receptor-related protein (INSRR, Homo sapiens, UniProt P14616): remaining activity read 80%.
Tyrosine-protein kinase Mer (MERTK, Homo sapiens, UniProt Q12866) — remaining activity: 98%.
The remaining activity was 97% (Casein kinase I isoform gamma-1 (CSNK1G1, Homo sapiens, UniProt Q9HCP0)).
Phosphatidylinositol 4-phosphate 5-kinase type-1 alpha (PIP5K1A, Homo sapiens, UniProt Q99755) — remaining activity: 101%.

Sample 6
SMILES: CC(C)(O)c1cncc(-c2nc3ccc(F)cc3n2C2CC2)c1
Read-out: cell-free assay
Method: competition with immobilised ligand
Tested at: 1 µM
The remaining binding was 100% (Mitogen-activated protein kinase 3 (MAPK3, Homo sapiens, UniProt P27361)).
For Ankyrin repeat and protein kinase domain-containing protein 1 (ANKK1, Homo sapiens, UniProt Q8NFD2): remaining binding read 100%.
For Cyclin-dependent kinase 4 (CDK4, Homo sapiens, UniProt P11802): remaining binding read 100%.
It gave 100% for remaining binding (Membrane-associated tyrosine- and threonine-specific cdc2-inhibitory kinase (PKMYT1, Homo sapiens, UniProt Q99640)).
For Protein-tyrosine kinase 2-beta (PTK2B, Homo sapiens, UniProt Q14289): remaining binding read 100%.
Phosphatidylinositol 4-kinase beta (PI4KB, Homo sapiens, UniProt Q9UBF8) — remaining binding: 100%.

Some of these lines once more (sample 4):
With `COC(=O)c1cc(O)c(O)c(OC)c1` the inhibition was 0%.
`CC(C)=CCO` gave an inhibition of -38%.
The inhibition of `C[C@@H](O)[C@H]1C(=O)N2C(C(=O)O)=C(S[C@@H]3CN[C@H](C(=O)Nc4cccc(C(=O)O)c4)C3)[C@H](C)[C@H]12` is reported as -18%.
With `Cc1c(O)c(C)c2c(c1O)C(=O)C[C@@H](c1ccc(O)cc1)O2` the inhibition was -37%.
For `C=C1C(=O)O[C@H]2C[C@@H](C)[C@@H]3C=CC(=O)[C@@]3(C)[C@@H](OC(C)=O)[C@H]12`, the inhibition was 13%.
